Published values from different studies.
Compare with care: the assays were run in different laboratories.
Organism: Escherichia coli

| SMILES | assay | test system | setting | MIC |
| --- | --- | --- | --- | --- |
| N=C(N)NCCC[C@@H]1NC(=O)[C@H](CCCNC(=N)N)NC(=O)[C@@H](C(c2ccccc2)c2ccccc2)NC(=O)[C@H](Cc2c[nH]c3ccccc23)NC(=O)[C@@H](C(c2ccccc2)c2ccccc2)NC(=O)[C@@H](CCCNC(=N)N)NC(=O)[C@@H](CCCNC(=N)N)NC1=O | – | ATCC BAA-2452, NDM-1 CRE | – | 16 µg/mL |
| CCCCCCCC(=O)N[C@@H](CCN)C(=O)N[C@H](C(=O)N[C@@H](CCN)C(=O)N[C@H]1CCNC(=O)[C@H]([C@@H](C)O)NC(=O)[C@H](CCN)NC(=O)[C@H](CCN)NC(=O)[C@H](CC(C)C)NC(=O)[C@@H](Cc2ccc(Br)cc2)NC(=O)[C@H](CCN)NC1=O)[C@@H](C)O | – | MG1655 | – | 0.25 µg/mL |
| OB(O)c1cnn(-c2cccc(Cl)c2)c1 | bacterial growth | CTX-M-14 ESBL clinical isolate | without cefotaxime | > 2050 µg/mL |
| CC(C)C[C@H](NC(=O)[C@H](CCCNC(=N)N)NC(=O)CNC(=O)CNC(=O)[C@@H](N)CCCNC(=N)N)C(=O)N[C@H]1CSSC[C@@H](C(=O)N[C@H](C(=O)NCC(=O)N[C@@H](CCCNC(=N)N)C(N)=O)C(C)C)NC(=O)[C@H](C(C)C)NC(=O)[C@@H]2CSSC[C@H](NC(=O)[C@H](Cc3ccc(O)cc3)NC1=O)C(=O)N[C@@H](CCCNC(=N)N)C(=O)N[C@@H](CCCNC(=N)N)C(=O)N[C@@H](CCCNC(=N)N)C(=O)N[C@@H](Cc1ccccc1)C(=O)N2 | broth dilution | K12 BW25113 | – | 1.8 µM |
| CC[C@H](C)[C@H](NC(=O)[C@@H](CCCNC(=N)N)NC(=O)[C@H](CCCNC(=N)N)NC(=O)[C@H](CO)NC(=O)[C@H](Cc1c[nH]c2ccccc12)NC(=O)[C@H](CCCNC(=N)N)NC(=O)[C@@H]1CCCN1C(=O)[C@H](CCCNC(=N)N)NC(=O)[C@@H]1CCCN1C(=O)[C@H](CC(C)C)NC(=O)[C@H](Cc1ccc(O)cc1)NC(=O)[C@@H]1CCCN1C(=O)[C@@H]1CCCN1C(=O)[C@H](CCCCN)NC(=O)[C@H](CC(=O)O)NC(=O)[C@@H](N)C(C)C)C(=O)N[C@@H](Cc1ccc(O)cc1)C(=O)N[C@@H](CC(N)=O)C(=O)N[C@H](CCCNC(=N)N)C(N)=O | broth microdilution | BW25113 | 18 h, 37 °C, 25% MHB2 | 8 µg/mL |
| O=C(O)CN(CC(=O)O)CP(=O)(O)O | – | NDM-1 producer | 32 µg/mL, MIC of meropenem, together with: meropenem | 0.125 µg/mL |
| CC[C@H](C)[C@H](N)C(=O)N[C@H](C)C(=O)N[C@@H](CC(C)C)C(=O)N[C@H](CCC(=O)O)C(=O)N[C@H](C(=O)N[C@H]1CCCCNC(=O)[C@H](CC(N)=O)NC(=O)[C@@H](CC(=O)O)NC(=O)[C@H](Cc2c[nH]cn2)NC(=O)[C@@H](Cc2ccccc2)NC(=O)[C@H]([C@@H](C)CC)NC(=O)[C@@H](CCCN)NC1=O)[C@@H](C)CC | – | ATCC 25922 | 18 h, 37 °C, 0.3 mM ZnSO4 LB | > 64 µg/mL |
| CC[C@H](C)[C@H](NC(=O)[C@@H](CCCNC(=N)N)NC(=O)[C@H](CCCNC(=N)N)NC(=O)[C@@H]1CCCN1C(=O)[C@@H]1CCCN1C(=O)[C@H](CCCNC(=N)N)NC(=O)[C@@H]1CCCN1C(=O)[C@H](CCCNC(=N)N)NC(=O)[C@@H]1CCCN1C(=O)[C@H](CC(C)C)NC(=O)[C@H](Cc1ccccc1)NC(=O)[C@@H]1CCCN1C(=O)[C@@H]1CCCN1C(=O)[C@H](CCCCN)NC(=O)[C@H](CC(=O)O)NC(=O)[C@@H](N)C(C)C)C(=O)N[C@@H](Cc1ccc(O)cc1)C(=O)N[C@@H](CC(N)=O)C(=O)N[C@H](CCCNC(=N)N)C(N)=O | broth microdilution | BW25113 | 18 h, 37 °C, 25% MHB2 | 16 µg/mL |
| CC[C@H](C)[C@H](NC(=O)[C@@H](NC(=O)[C@H](CCCCN)NC(=O)[C@H](CCCCN)NC(=O)[C@@H](NC(=O)[C@H](Cc1c[nH]c2ccccc12)NC(=O)[C@H](CCCCN)NC(=O)[C@@H](NC(=O)[C@H](CC(C)C)NC(=O)[C@H](CCCCN)NC(=O)[C@H](CCCCN)NC(=O)[C@@H](N)C(C)C)[C@@H](C)CC)[C@@H](C)CC)C(C)C)C(N)=O | – | – | 24 h, 37 °C, Mueller-Hinton broth, KCl 4.5 mM | 64 µM |
| CC[C@H](C)[C@H](NC(=O)[C@@H](CCCNC(=N)N)NC(=O)[C@H](CCCNC(=N)N)NC(=O)[C@@H]1CCCN1C(=O)[C@@H]1CCCN1C(=O)[C@H](CCCNC(=N)N)NC(=O)[C@@H]1CCCN1C(=O)[C@H](CCCNC(=N)N)NC(=O)[C@@H]1CCCN1C(=O)[C@H](CC(C)C)NC(=O)[C@H](Cc1ccc(O)cc1)NC(=O)[C@@H]1CCCN1C(=O)[C@@H]1CCCN1C(=O)[C@H](CCCCN)NC(=O)[C@H](CCCNC(=N)N)NC(=O)[C@@H](N)C(C)C)C(=O)N[C@@H](Cc1ccc(O)cc1)C(=O)N[C@@H](CC(N)=O)C(=O)N[C@H](CCCNC(=N)N)C(N)=O | broth microdilution | MC4100 | 18 h, 37 °C, 25% MHB2 | 8 µg/mL |
| CC(C)C[C@@H](NC(=O)[C@H](NC(=O)[C@@H](CCCCN)NC(=O)[C@@H](CCCCN)NC(=O)[C@@H](CC(C)C)NC(=O)[C@@H](Cc1c[nH]c2ccccc12)NC(=O)[C@@H](CCCCN)NC(=O)[C@@H](CC(C)C)NC(=O)[C@@H](CC(C)C)NC(=O)[C@@H](CCCCN)NC(=O)[C@@H](CCCCN)NC(=O)[C@H](N)C(C)C)C(C)C)C(N)=O | – | – | 24 h, 37 °C, Mueller-Hinton broth, NH4Cl 6 µM | 8 µM |
| CC[C@H](C)[C@H](NC(=O)[C@H](CCCCN)NC(=O)[C@H](CCCNC(=N)N)NC(=O)[C@H](Cc1c[nH]c2ccccc12)NC(=O)[C@@H](NC(=O)[C@H](CCCCN)NC(=O)[C@H](CCCNC(=N)N)NC(=O)[C@@H](NC(=O)[C@H](CCCNC(=N)N)NC(=O)[C@H](CCCCN)NC(=O)[C@H](CCCNC(=N)N)NC(=O)[C@H](CC(C)C)NC(=O)[C@H](CCCNC(=N)N)NC(=O)[C@H](CO)NC(=O)[C@H](Cc1ccccc1)NC(=O)[C@H](CCCNC(=N)N)NC(=O)CN)[C@@H](C)CC)C(C)C)C(=O)NCC(=O)N1CCC[C@H]1C(=O)N[C@H](C(=O)N[C@@H](C)C(=O)NCC(=O)N1CCC[C@H]1C(=O)N[C@H](C(=O)N[C@H](C(=O)NCC(=O)N[C@@H](Cc1c[nH]cn1)C(=O)N[C@@H](Cc1ccccc1)C(=O)NCC(=O)O)[C@@H](C)CC)[C@@H](C)CC)[C@@H](C)CC | CLSI agar dilution | ATCC 25922 | 20 h, 37 °C | 16 µg/mL |
| CCn1c(-c2ccc(Br)cc2)c(-c2ccc(Br)cc2)n(CC)c1=[Se] | broth microdilution | carbapenem-resistant BAA-2140 | 24 h | > 40 µM |
| CC[C@H](C)[C@H](NC(=O)CNC(=O)[C@@H](NC(=O)CNC(=O)[C@@H](NC(=O)CNC(=O)[C@@H](NC(=O)[C@@H](NC(=O)[C@H](CCC(N)=O)NC(=O)[C@H](CCC(=O)O)NC(=O)[C@@H](NC(=O)[C@H](CC(C)C)NC(=O)[C@H](CCCNC(=N)N)NC(=O)[C@H](Cc1ccccc1)NC(=O)[C@@H](NC(=O)[C@H](CC(N)=O)NC(=O)[C@H](CCCCN)NC(=O)CNC(=O)[C@H](CCSC)NC(=O)[C@H](CCCCN)NC(=O)CNC(=O)[C@H](CC(C)C)NC(=O)[C@H](CCCCN)NC(=O)[C@H](CCCCN)NC(=O)CNC(=O)[C@H](Cc1ccccc1)NC(=O)[C@H](CCCCN)NC(=O)[C@H](CCCCN)NC(=O)[C@H](CC(C)C)NC(=O)[C@H](Cc1c[nH]c2ccccc12)NC(=O)CN)C(C)C)C(C)C)C(C)C)C(C)C)C(C)C)C(C)C)C(=O)N[C@@H](CC(N)=O)C(=O)N[C@@H](C)C(=O)N[C@@H](CC(C)C)C(=O)N[C@@H](CO)C(=O)O | broth microdilution | ATCC 25922, Mueller-Hinton broth | 16 to 20 h, 37 °C | 4.39 µg/mL |
| CN[C@@H]1[C@H](O)[C@H](NC)[C@H]2O[C@]3(O)[C@H](O[C@@H]2[C@H]1O)O[C@H](C)C[C@H]3NC(=O)Cc1ccc(F)cn1 | microbial growth, broth dilution | K12 | – | 100 µg/mL |
| CC[C@H](C)[C@H](NC(=O)[C@H](CCCNC(=N)N)NC(=O)[C@H](CO)NC(=O)[C@H](Cc1ccc(O)cc1)NC(=O)[C@@H](NC(=O)[C@@H](NC(=O)[C@H](C)NC(=O)CNC(=O)[C@H](CCCCN)NC(=O)[C@H](CCCCN)NC(=O)CCNC(=O)CCCCCNC(=O)[C@H](CCCNC(=N)N)NC(=O)CCCCCNC(=O)[C@H](CCCNC(=N)N)NC(=O)[C@H](CCCNC(=N)N)NC(=O)CCCCCNC(=O)[C@H](CCCNC(=N)N)NC(=O)[C@H](CCCNC(=N)N)NC(=O)CCCCCNC(=O)[C@H](CCCNC(=N)N)NC(=O)[C@H](CCCNC(=N)N)NC(=O)CCCCCNC(=O)[C@@H](N)CCCNC(=N)N)C(C)C)[C@@H](C)O)C(=O)N[C@@H](CO)C(=O)NCC(=O)N[C@@H](CCC(N)=O)C(=O)N[C@@H](Cc1ccc(O)cc1)C(=O)N[C@@H](CCCCN)C(=O)O | – | ATCC 25922 | 1 h, 37 °C, after 12.5% human serum | 6 µM |
| CC[C@H](C)[C@H](NC(=O)[C@@H](CCCNC(=N)N)NC(=O)[C@H](CCCNC(=N)N)NC(=O)[C@@H]1CCCN1C(=O)[C@@H]1CCCN1C(=O)[C@H](CCCNC(=N)N)NC(=O)[C@@H]1CCCN1C(=O)[C@H](CCCNC(=N)N)NC(=O)[C@@H]1CCCN1C(=O)[C@H](CC(C)C)NC(=O)[C@H](Cc1c[nH]cn1)NC(=O)[C@@H]1CCCN1C(=O)[C@@H]1CCCN1C(=O)[C@H](CCCCN)NC(=O)[C@H](CC(=O)O)NC(=O)[C@@H](N)C(C)C)C(=O)N[C@@H](Cc1ccc(O)cc1)C(=O)N[C@@H](CC(N)=O)C(=O)N[C@H](CCCNC(=N)N)C(N)=O | broth microdilution | BW25113 | 18 h, 37 °C, 25% MHB2 | 4 µg/mL |
| CO[C@@H](C(N)=O)[C@H](NC(=O)c1ccc(NC(=O)[C@@H](N)Cc2ccc(O)cc2)cc1)C(=O)Nc1ccc(C(=O)Nc2ccc(C(=O)Nc3ccc(C(=O)O)cc3)c(O)c2OC(C)C)cc1 | – | monooxygenase clone | 16 h, 37 °C | 1 µg/mL |
| C#CCNC(=O)C(C)(C)O/N=C(\C(=O)N[C@@H]1C(=O)N(S(=O)(=O)O)[C@H]1C)c1csc(N)n1 | agar dilution | 08-85 mcr-1 | – | 128 µg/mL |

A few entries again:
| SMILES | assay | test system | setting | MIC |
| --- | --- | --- | --- | --- |
| CC[C@H](C)[C@H](NC(=O)[C@H](CCCCN)NC(=O)[C@H](CCCNC(=N)N)NC(=O)[C@H](Cc1c[nH]c2ccccc12)NC(=O)[C@@H](NC(=O)[C@H](CCCCN)NC(=O)[C@H](CCCNC(=N)N)NC(=O)[C@@H](NC(=O)[C@H](CCCNC(=N)N)NC(=O)[C@H](CCCCN)NC(=O)[C@H](CCCNC(=N)N)NC(=O)[C@H](CC(C)C)NC(=O)[C@H](CCCNC(=N)N)NC(=O)[C@H](CO)NC(=O)[C@H](Cc1ccccc1)NC(=O)[C@H](CCCNC(=N)N)NC(=O)CN)[C@@H](C)CC)C(C)C)C(=O)NCC(=O)N1CCC[C@H]1C(=O)N[C@H](C(=O)N[C@@H](C)C(=O)NCC(=O)N1CCC[C@H]1C(=O)N[C@H](C(=O)N[C@H](C(=O)NCC(=O)N[C@@H](Cc1c[nH]cn1)C(=O)N[C@@H](Cc1ccccc1)C(=O)NCC(=O)O)[C@@H](C)CC)[C@@H](C)CC)[C@@H](C)CC | CLSI agar dilution | ATCC 25922 | 20 h, 37 °C | 16 µg/mL |
| CC[C@H](C)[C@H](NC(=O)[C@H](CCCNC(=N)N)NC(=O)[C@H](CO)NC(=O)[C@H](Cc1ccc(O)cc1)NC(=O)[C@@H](NC(=O)[C@@H](NC(=O)[C@H](C)NC(=O)CNC(=O)[C@H](CCCCN)NC(=O)[C@H](CCCCN)NC(=O)CCNC(=O)CCCCCNC(=O)[C@H](CCCNC(=N)N)NC(=O)CCCCCNC(=O)[C@H](CCCNC(=N)N)NC(=O)[C@H](CCCNC(=N)N)NC(=O)CCCCCNC(=O)[C@H](CCCNC(=N)N)NC(=O)[C@H](CCCNC(=N)N)NC(=O)CCCCCNC(=O)[C@H](CCCNC(=N)N)NC(=O)[C@H](CCCNC(=N)N)NC(=O)CCCCCNC(=O)[C@@H](N)CCCNC(=N)N)C(C)C)[C@@H](C)O)C(=O)N[C@@H](CO)C(=O)NCC(=O)N[C@@H](CCC(N)=O)C(=O)N[C@@H](Cc1ccc(O)cc1)C(=O)N[C@@H](CCCCN)C(=O)O | – | ATCC 25922 | 1 h, 37 °C, after 12.5% human serum | 6 µM |
| CN[C@@H]1[C@H](O)[C@H](NC)[C@H]2O[C@]3(O)[C@H](O[C@@H]2[C@H]1O)O[C@H](C)C[C@H]3NC(=O)Cc1ccc(F)cn1 | microbial growth, broth dilution | K12 | – | 100 µg/mL |
